Measured values collected from several papers.
Lines come from different studies, so protocols differ. Numbers after ± are the reported error.
Cell line: SK-MEL-28

| SMILES | test | test system | conditions | endpoint | result |
| --- | --- | --- | --- | --- | --- |
| CC(C)N1CCC(NC2CCN(c3cccc(-c4cc5cc(F)ccc5[nH]4)c3)CC2)CC1 | – | – | – | GI50 | 1750 nM |
| Cn1cncc1C1=CN(c2ncnc3[nH]cnc23)CCS1 | – | – | melanoma cell line | CC50 | > 200000 nM |
| N.N.[Cl][Pt][Cl] | cell growth, SRB | – | dark, normoxia | GI50 | 1110 nM |
| CN1CCN(C2(CNC3CCN(c4cccc(-c5cc6cc(F)ccc6[nH]5)c4)CC3)CCC2)CC1 | – | – | – | GI50 | 1730 nM |
| COc1c(CCC[P+](c2ccccc2)(c2ccccc2)c2ccccc2)cc2c(c1OC)OCO2.[I-] | SRB | – | – | LC50 | -4.37 log M |
| Cc1cccc(-c2cccc(C)n2)n1.Cc1cccc(-c2cccc(C)n2)n1.F[P-](F)(F)(F)(F)F.F[P-](F)(F)(F)(F)F.[Ru+2].c1ccc2cc(-c3nc4c5cccnc5c5ncccc5c4[nH]3)ccc2c1 | cell viability | – | dark, 1% O2 | EC50 | 72200 ± 3800 nM |
| COc1cc(CCC[P+](c2ccccc2)(c2ccccc2)c2ccccc2)c(OC)c2c1OCO2.[I-] | SRB | – | – | TGI | -4.85 log M |
| COc1c(C)c2c(c(O)c1C/C=C(\C)CCC(=O)O)C(=O)OC2 | cell proliferation | skin cancer | – | IC50 | 692 nM |

A few entries again:
| SMILES | test | test system | conditions | endpoint | result |
| --- | --- | --- | --- | --- | --- |
| COc1cc(CCC[P+](c2ccccc2)(c2ccccc2)c2ccccc2)c(OC)c2c1OCO2.[I-] | SRB | – | – | TGI | -4.85 log M |
